Published values from different studies.
Parts stem from different laboratories: compare values within a part only. Substitutions count along the parent as printed.

Sample 1
Change: F66K
Target: ABI1, truncated, D143A, DHFR fusion (Arabidopsis thaliana)
Method: DHFR PCA, deep sequencing
Sample: yeast
Notes: methotrexate growth selection, single substitutions
Baseline: wild-type fitted maximum
Direction: higher = stronger binding
Endpoint: relative binding score
Parent: PYL1, truncated, DHFR fusion (Arabidopsis thaliana); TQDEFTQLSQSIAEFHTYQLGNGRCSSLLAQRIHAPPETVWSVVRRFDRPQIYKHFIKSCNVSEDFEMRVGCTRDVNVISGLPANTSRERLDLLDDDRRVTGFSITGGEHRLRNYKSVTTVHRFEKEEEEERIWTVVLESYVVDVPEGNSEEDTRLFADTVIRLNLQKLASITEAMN; partner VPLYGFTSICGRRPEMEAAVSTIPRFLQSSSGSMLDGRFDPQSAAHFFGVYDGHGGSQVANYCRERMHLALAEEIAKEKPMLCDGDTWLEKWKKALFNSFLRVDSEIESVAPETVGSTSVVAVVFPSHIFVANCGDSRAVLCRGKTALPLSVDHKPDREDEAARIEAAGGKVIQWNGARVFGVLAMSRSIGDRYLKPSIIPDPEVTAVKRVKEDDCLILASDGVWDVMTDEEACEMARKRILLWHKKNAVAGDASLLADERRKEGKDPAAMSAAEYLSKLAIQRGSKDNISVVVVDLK
added: (+)-ABA 0.39 µM: 13%
added: (+)-ABA 0.032 µM: 1.15%
added: (+)-ABA 0 µM: 3.17%
added: (+)-ABA 2500 µM: 99.6%
added: (+)-ABA 200 µM: 87.4%
added: (+)-ABA 4.8 µM: 49.2%

Sample 2
Target: Centromere-binding protein 1, full length, His-tagged (CBF1, Saccharomyces cerevisiae, UniProt P17106, residues 1-351)
Chain of UniProt P17106 (whole entry, looked up): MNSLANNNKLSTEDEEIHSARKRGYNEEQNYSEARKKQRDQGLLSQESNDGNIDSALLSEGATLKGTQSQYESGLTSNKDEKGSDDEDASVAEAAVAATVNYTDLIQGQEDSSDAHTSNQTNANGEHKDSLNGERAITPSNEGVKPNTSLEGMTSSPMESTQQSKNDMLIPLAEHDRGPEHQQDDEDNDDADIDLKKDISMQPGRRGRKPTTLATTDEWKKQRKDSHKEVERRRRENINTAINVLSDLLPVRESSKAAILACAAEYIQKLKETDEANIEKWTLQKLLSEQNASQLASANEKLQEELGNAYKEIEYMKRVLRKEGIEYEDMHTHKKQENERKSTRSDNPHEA
Method: competition protein-binding microarray
Form: double-stranded DNA, one strand shown
Sample: in vitro
Tested at: 2 µM
Notes: whole 60-bp probe, lowest competitor level
Added: Pho4 competitor, 0.05 µM
Direction: higher = stronger binding
Endpoint: fluorescence intensity
Constant ends, left off below: … GTCTTGATTCGCTTGACGCTGCTG
CAATTACTGAAGCTTCACGTGCCAGAACGTAAAAAT: 1330 a.u.
GCCCATTCTGTGGTGAATGTGACGGAGCAGTTTGAG: 69.3 a.u.
TAGAGAATGGCAATGCTCGTGCTAAAGGTGAAAAAA: 92 a.u.
CTTTCCCGATCTTTTCACGTGAGTTTAGCACATTTG: 1250 a.u.
ACAAGGAAGGTATTCCACCTGACGAACAAAGATTGA: 150 a.u.
TATTTTAACATGGTCTCCGTGCCGACGGCGTACCCA: 67.9 a.u.
ACTTGTGGCTACATACTCGGTCAAGCCGCTTTGCTG: 58.9 a.u.
CGGGGTTAAGTTTGAAGTGTGGGTGGCTTGCAGCAG: 79.1 a.u.

Sample 3
Target: TATA-box-binding protein 1 (TBP1, Arabidopsis thaliana, UniProt P28147, residues 1-200, full length assumed)
Method: protein-binding microarray
Form: double-stranded DNA, one strand shown
Sample: in vitro
Tested at: not given
Notes: k-mer, scored over probes, only values ≥0.25
Direction: higher = stronger binding
Endpoint: E-score
Target sequence (chain): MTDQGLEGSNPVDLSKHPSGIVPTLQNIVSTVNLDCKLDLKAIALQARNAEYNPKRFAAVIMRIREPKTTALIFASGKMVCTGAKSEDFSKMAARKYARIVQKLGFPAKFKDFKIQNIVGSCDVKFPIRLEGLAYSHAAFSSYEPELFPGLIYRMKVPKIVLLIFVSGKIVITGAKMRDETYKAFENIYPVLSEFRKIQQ
TACTATA: 0.378
GGTATAC: 0.284
GAGTATA: 0.384
ATATGGA: 0.33
ATAAGGC: 0.255
TCAATAA: 0.304
TATCTAA: 0.325
ATATACC: 0.414

Mixed results
Parent: viral docking peptide; PTARRRLLHDLDT
L7A  normalised enrichment score (CCNA2, cyclin fold, Cln2 fusion (human); yeast growth competition, sequencing; yeast; strong parent motif; baseline: not given, higher = stronger binding): -0.192

Excerpt of the above (sample 3):
GAGTATA: 0.384
ATAAGGC: 0.255
TCAATAA: 0.304
ATATACC: 0.414
